Assay results from different studies.
Parts stem from different laboratories: compare values within a part only.
Sequence of UniProt Q6PHR2 (whole entry, looked up): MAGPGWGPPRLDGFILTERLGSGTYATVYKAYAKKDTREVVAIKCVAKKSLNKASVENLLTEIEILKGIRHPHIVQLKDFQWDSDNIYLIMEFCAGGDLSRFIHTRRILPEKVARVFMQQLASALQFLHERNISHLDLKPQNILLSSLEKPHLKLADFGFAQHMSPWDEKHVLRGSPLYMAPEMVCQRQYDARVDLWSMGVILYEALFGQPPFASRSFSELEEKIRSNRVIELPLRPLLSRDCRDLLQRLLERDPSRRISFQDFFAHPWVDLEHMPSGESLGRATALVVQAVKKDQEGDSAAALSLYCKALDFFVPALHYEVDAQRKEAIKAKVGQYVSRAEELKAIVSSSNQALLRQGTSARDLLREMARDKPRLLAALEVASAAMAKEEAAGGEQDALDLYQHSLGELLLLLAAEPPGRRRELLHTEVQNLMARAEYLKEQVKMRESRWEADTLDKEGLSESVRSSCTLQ
Sequence of UniProt Q15139 (whole entry, looked up): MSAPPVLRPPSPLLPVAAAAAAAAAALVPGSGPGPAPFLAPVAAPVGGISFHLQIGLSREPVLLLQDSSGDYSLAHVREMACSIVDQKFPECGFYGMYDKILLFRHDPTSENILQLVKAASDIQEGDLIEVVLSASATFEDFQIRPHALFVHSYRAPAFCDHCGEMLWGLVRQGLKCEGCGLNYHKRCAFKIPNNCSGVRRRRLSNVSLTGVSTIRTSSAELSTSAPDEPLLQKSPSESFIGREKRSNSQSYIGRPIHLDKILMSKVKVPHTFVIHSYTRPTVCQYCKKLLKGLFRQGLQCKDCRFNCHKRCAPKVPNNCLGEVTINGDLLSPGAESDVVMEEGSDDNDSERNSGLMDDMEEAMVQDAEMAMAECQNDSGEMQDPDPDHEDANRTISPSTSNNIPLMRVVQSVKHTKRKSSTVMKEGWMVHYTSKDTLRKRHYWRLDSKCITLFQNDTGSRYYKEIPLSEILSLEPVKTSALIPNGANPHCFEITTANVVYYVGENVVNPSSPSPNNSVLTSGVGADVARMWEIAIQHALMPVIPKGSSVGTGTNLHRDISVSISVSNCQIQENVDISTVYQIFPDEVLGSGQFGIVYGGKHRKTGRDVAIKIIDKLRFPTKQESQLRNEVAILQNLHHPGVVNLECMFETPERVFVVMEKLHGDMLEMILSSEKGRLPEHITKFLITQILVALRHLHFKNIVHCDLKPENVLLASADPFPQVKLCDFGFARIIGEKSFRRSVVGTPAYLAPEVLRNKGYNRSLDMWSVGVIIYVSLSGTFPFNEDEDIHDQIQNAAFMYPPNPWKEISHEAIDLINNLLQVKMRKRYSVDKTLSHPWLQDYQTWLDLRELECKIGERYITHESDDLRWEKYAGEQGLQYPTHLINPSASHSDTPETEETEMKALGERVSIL
Sequence of UniProt Q96D53 (whole entry, looked up): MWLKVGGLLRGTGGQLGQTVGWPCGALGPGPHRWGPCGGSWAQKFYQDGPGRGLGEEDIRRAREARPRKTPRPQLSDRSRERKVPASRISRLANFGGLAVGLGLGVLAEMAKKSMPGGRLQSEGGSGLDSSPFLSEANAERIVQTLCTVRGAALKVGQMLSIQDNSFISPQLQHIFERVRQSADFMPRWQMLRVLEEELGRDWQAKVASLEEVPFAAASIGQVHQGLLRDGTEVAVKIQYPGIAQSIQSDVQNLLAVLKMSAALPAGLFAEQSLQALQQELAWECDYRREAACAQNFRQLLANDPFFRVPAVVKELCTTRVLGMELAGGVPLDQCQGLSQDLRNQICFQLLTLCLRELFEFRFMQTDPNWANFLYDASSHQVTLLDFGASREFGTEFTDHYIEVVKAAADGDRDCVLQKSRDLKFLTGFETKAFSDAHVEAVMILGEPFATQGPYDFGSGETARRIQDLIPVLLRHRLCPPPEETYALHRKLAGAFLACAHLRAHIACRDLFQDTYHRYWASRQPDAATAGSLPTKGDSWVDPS
Sequence of UniProt Q9Y2K2 (whole entry, looked up): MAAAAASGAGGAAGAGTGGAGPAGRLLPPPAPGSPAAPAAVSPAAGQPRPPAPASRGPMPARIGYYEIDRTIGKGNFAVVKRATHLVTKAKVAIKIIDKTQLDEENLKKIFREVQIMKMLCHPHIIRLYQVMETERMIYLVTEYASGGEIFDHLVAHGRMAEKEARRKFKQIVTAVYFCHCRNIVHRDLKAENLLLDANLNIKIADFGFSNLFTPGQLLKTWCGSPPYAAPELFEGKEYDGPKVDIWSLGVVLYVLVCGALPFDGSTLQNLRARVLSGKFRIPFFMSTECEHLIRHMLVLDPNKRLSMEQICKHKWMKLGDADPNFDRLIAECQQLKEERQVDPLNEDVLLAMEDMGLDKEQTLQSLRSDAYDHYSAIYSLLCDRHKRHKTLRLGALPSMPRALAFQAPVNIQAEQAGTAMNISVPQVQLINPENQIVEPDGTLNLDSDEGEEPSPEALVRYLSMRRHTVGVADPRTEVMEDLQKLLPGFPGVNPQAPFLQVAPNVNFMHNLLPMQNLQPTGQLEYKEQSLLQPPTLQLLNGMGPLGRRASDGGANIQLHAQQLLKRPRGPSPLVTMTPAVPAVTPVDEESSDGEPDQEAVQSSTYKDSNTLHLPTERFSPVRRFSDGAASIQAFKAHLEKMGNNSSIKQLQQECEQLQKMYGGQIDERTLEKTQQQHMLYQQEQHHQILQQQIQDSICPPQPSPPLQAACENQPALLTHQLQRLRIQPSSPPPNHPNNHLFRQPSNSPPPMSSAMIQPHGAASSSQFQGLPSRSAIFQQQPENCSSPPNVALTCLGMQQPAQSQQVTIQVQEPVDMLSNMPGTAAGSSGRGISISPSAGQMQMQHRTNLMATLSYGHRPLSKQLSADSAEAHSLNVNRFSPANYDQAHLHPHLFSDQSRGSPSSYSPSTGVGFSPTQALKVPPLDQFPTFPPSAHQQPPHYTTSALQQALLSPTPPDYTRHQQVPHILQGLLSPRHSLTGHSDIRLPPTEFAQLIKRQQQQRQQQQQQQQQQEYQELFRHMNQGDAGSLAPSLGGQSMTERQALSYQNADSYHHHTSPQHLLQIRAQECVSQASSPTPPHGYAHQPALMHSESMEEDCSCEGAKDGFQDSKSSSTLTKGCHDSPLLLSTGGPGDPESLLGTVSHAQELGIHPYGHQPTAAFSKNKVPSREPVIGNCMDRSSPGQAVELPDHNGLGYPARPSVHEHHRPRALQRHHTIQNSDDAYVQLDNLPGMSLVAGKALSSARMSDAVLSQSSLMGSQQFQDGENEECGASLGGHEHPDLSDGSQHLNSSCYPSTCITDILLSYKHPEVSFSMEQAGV
Sequence of UniProt P41240 (whole entry, looked up): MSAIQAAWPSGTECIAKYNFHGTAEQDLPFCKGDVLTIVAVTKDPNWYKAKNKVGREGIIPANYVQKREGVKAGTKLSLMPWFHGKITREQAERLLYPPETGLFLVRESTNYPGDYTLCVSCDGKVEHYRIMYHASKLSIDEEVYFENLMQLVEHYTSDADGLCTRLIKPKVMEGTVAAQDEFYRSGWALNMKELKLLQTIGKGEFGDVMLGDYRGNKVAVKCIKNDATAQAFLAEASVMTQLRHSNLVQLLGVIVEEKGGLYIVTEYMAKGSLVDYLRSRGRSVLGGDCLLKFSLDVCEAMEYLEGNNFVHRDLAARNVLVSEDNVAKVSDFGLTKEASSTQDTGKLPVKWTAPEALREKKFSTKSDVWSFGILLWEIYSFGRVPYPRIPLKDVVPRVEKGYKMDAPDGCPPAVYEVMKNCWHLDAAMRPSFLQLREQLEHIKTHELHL
Sequence of UniProt Q8IY84 (whole entry, looked up): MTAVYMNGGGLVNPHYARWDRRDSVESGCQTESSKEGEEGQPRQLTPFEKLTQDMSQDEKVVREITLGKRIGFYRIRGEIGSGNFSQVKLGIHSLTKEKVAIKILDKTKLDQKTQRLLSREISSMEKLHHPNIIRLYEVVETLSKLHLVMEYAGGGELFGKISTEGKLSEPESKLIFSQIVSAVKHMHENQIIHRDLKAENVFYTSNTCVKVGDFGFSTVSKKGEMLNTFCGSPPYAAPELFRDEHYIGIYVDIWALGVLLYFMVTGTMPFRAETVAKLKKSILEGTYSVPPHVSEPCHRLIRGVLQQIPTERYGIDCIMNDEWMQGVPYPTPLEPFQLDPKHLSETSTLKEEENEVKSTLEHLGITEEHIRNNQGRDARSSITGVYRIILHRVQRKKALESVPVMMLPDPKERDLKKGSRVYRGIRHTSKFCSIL
Sequence of UniProt P57058 (whole entry, looked up): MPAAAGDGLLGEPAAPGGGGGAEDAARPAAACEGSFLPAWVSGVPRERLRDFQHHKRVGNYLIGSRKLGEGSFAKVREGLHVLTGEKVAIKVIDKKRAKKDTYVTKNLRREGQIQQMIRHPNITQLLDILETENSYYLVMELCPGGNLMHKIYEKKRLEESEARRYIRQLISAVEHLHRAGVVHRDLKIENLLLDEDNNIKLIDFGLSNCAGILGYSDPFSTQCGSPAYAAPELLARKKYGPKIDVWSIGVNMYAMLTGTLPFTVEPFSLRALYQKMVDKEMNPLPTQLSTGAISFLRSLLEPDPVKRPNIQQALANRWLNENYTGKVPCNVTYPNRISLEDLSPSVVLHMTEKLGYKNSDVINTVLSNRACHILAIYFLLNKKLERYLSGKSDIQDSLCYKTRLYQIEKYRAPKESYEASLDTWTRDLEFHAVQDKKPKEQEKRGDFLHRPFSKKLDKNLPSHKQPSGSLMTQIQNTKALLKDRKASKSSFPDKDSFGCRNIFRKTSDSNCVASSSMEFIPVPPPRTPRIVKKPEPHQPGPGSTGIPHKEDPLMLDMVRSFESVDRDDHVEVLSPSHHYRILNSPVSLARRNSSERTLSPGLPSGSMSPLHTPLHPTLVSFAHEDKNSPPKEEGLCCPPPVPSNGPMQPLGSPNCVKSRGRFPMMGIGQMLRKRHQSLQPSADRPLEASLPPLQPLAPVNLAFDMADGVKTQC

Study 1 — cell line: mouse MPNST tumor cells; method: high-content immunofluorescence imaging; item: nuclear SOX9; tested at: 10 µM; time: 12 h; setting: mean of 2 replicates; baseline: DMSO control; reading: higher = more nuclear SOX9; endpoint: nuclear SOX9 intensity
CN(Cc1cc(Br)cc(Br)c1N)C1CCCCC1: 120 % of DMSO
COC(=O)C1=C(C)NC(C)=C(C(=O)OCCCN2CCC(c3ccccc3)(c3ccccc3)CC2)[C@H]1c1cccc([N+](=O)[O-])c1: 126 % of DMSO
O=C1Cc2c([nH]c3ccc(Br)cc23)-c2ccccc2N1: 90.3 % of DMSO
N[C@@H]1CCCCN(c2c(F)cc3c(=O)c(C(=O)O)cn(C4CC4)c3c2Cl)C1: 99.7 % of DMSO
C=C1c2cccc(O)c2C(O)=C2C(=O)[C@]3(O)C(O)=C(C(N)=O)C(=O)[C@@H](N(C)C)[C@@H]3[C@@H](O)[C@H]12: 99.9 % of DMSO
O=c1onc2n1-c1cc(Br)ccc1OC2: 102 % of DMSO
CC(CN1c2ccccc2Sc2ccccc21)N(C)C (stereo not drawn): 123 % of DMSO
C[S+]([O-])c1ccc(-c2nc(-c3ccc(F)cc3)c(-c3ccncc3)[nH]2)cc1 (stereo not drawn): 120 % of DMSO
CC1(c2ccccc2)OC(C(=O)O)=CC1=O (stereo not drawn): 94.8 % of DMSO
Cc1cc(C)c(C)c(S(=O)(=O)Nc2ccc(N3CC[C@H](C(=O)O)C3)c3ccccc23)c1C: 85.6 % of DMSO
COc1cc(NC(=O)c2ccccn2)ccc1Cl: 102 % of DMSO
CN(CC[C@@H](Oc1ccc(-c2ccccc2)cc1)c1ccc(F)cc1)CC(=O)O: 97.4 % of DMSO

Study 2 — cell line: HaCaT; tested at: 100 µM; time: 18 h; endpoint: viability
COC(=O)C1=C(C)NC(C)=C(C(=O)OC(C)C)C1c1cccc2nonc12 (stereo not drawn): 48.8%
N=C(N)c1ccc(OCCCCCOc2ccc(C(=N)N)cc2)cc1: 99.5%
Cc1c(Cl)cccc1Nc1ccccc1C(=O)O: 95.3%
COCC(=O)Nc1c(I)c(C(=O)NCC(O)CO)c(I)c(C(=O)N(C)CC(O)CO)c1I (mixture of isomers): 110%
COc1ccc(NS(=O)(=O)c2ccc(N)cc2)nn1: 61.8%
O=C(CO)[C@@H](O)[C@H](O)[C@H](O)CO: 116%
NCCc1c[nH]cn1: 108%
O=C(O)c1ccccc1OP(=O)(O)O: 113%
COc1ccc(C(=O)NCc2ccc(OCCN(C)C)cc2)cc1OC: 82.2%
OC[C@H]1O[C@@H](n2cnc3c(O)ncnc32)[C@H](O)[C@@H]1O: 94.2%

Study 3 — effect on: cell-free assay; method: competition with immobilised ligand; tested at: 1 µM; endpoint: remaining binding
SMILES: CO[C@H]1CC[C@H](CNc2ccc(S(=O)(=O)NC(=O)c3ccc(N4CCN(CC5=C(c6ccc(Cl)cc6)CC(C)(C)CC5)CC4)cc3Oc3cnc4[nH]ccc4c3)cc2[N+](=O)[O-])CC1
Serine/threonine-protein kinase SIK3 (SIK3, Homo sapiens, UniProt Q9Y2K2): 89%
Atypical kinase COQ8B, mitochondrial (COQ8B, Homo sapiens, UniProt Q96D53): 100%
Tyrosine-protein kinase ABL1, phosphorylated (ABL1, Homo sapiens, UniProt P00519, T315I): 80%
Serine/threonine-protein kinase D1 (PRKD1, Homo sapiens, UniProt Q15139): 76%
Misshapen-like kinase 1 (MINK1, Homo sapiens, UniProt Q8N4C8): 88%
Serine/threonine-protein kinase NIM1 (NIM1K, Homo sapiens, UniProt Q8IY84): 90%
Cyclin-dependent kinase 3 (CDK3, Homo sapiens, UniProt Q00526): 100%
Dual specificity mitogen-activated protein kinase kinase 3 (MAP2K3, Homo sapiens, UniProt P46734): 92%
Protein kinase C eta type (PRKCH, Homo sapiens, UniProt P24723): 60%
Phosphorylase b kinase gamma catalytic chain, liver/testis isoform (PHKG2, Homo sapiens, UniProt P15735): 74%
Tyrosine-protein kinase receptor Tie-1 (TIE1, Homo sapiens, UniProt P35590): 100%
Hormonally up-regulated neu tumor-associated kinase (HUNK, Homo sapiens, UniProt P57058): 100%
Serine/threonine-protein kinase ULK3 (ULK3, Homo sapiens, UniProt Q6PHR2): 80%
Tyrosine-protein kinase CSK (CSK, Homo sapiens, UniProt P41240): 76%
Serine/threonine-protein kinase Nek9 (NEK9, Homo sapiens, UniProt Q8TD19): 95%

Study 4 — effect on: enzyme activity; mode: inhibitor; tested at: 0.5 µM; baseline: control; endpoint: remaining activity
Target: Testis-specific serine/threonine-protein kinase 1 (TSSK1B, Homo sapiens, UniProt Q9BXA7)
Residues (Q9BXA7 1-367): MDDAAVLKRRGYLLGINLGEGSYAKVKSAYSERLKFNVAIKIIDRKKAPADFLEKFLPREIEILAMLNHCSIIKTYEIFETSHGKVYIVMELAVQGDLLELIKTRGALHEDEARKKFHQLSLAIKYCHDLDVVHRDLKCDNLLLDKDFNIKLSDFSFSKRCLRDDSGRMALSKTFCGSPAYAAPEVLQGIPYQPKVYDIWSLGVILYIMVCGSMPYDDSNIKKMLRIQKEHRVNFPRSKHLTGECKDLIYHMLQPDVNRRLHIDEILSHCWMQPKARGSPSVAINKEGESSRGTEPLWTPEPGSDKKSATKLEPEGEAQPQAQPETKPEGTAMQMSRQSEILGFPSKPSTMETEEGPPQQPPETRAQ
c1cc(-c2cnn3cc(-c4ccc(OCCN5CCCCC5)cc4)cnc23)ccn1: 81.1%
COc1cc2c(N3CCN(C(=O)Nc4ccc(OC(C)C)cc4)CC3)ncnc2cc1OCCCN1CCCCC1: 96.8%
NC(=O)c1ccc(-c2nc(-c3ccc4c(c3)OCCO4)c(-c3ccccn3)[nH]2)cc1: 100%
CCCCc1c(-c2ccc(O)cc2)[nH]c2nccnc12: 62%
O=Nc1c(-c2c(O)[nH]c3ccccc23)[nH]c2ccccc12: 86%
CC(C)N(CCC(=O)c1ccc2ccccc2c1)Cc1ccccc1: 100%
NC(=O)c1cccc(-c2cc(Nc3ccc(OC(F)(F)F)cc3)ncn2)c1: 95.4%
O=c1c(-c2ccc(F)cc2)c(-c2ccncc2)[nH]n1-c1ccc(Cl)cc1: 76.2%
N#CC(c1ccnc(NCCc2cccnc2)n1)c1nc2ccccc2s1 (stereo not drawn): 99%
COc1cc2c(Nc3ccc(Br)cc3F)ncnc2cc1OCC1CCN(C)CC1: 96.6%
Nc1nc(Nc2ccc(S(N)(=O)=O)cc2)nn1C(=S)Nc1c(F)cccc1F: 13.7%
FC(F)(F)c1ccc(/C=C/c2nc(COc3ccc(CCCCn4ccnn4)cc3)co2)cc1: 93.4%
N#C/C(=C(/N)SC1C=CC=CC1)c1cccc(C(O)c2ccncc2)c1 (stereo not drawn): 94%
O=C(O)/C=C/c1cc(Br)c(Br)c(Br)c1Br: 79.2%
O=C1c2ccccc2-c2nc3nnnn3nc21: 88.7%
C[C@@H](N)[C@H]1CC[C@H](C(=O)Nc2ccncc2)CC1: 103%
Clc1ccc(Nc2nnc(Cc3ccncc3)c3ccccc23)cc1: 94.8%
O=C1NC(=O)/C(=C/c2ccc3c(c2)OC(F)(F)O3)S1: 93.3%
CC(C)(C)c1nc2c3cc[nH]c(=O)c3c3cc(F)ccc3c2[nH]1: 37.3%
CC(C)n1cnc2c(Nc3cccc(Cl)c3)nc(NCCO)nc21: 91.9%
O=C(c1ccccc1)c1ccc(N2CCOCC2)cc1O: 107%
CNc1cc2c(Nc3cccc(Br)c3)ncnc2cn1: 60.2%
CCN(CC)CCCCN1c2ccccc2Oc2ccc(Cl)cc21: 96.7%

Some of these lines once more (study 4):
CC(C)N(CCC(=O)c1ccc2ccccc2c1)Cc1ccccc1: 100%
CNc1cc2c(Nc3cccc(Br)c3)ncnc2cn1: 60.2%
O=C(c1ccccc1)c1ccc(N2CCOCC2)cc1O: 107%
